Measured values gathered from unrelated publications.
Lines come from different studies, so protocols differ. Converted amounts (≈) assume the structure as drawn.
UniProt P42336, sequence (whole entry, looked up): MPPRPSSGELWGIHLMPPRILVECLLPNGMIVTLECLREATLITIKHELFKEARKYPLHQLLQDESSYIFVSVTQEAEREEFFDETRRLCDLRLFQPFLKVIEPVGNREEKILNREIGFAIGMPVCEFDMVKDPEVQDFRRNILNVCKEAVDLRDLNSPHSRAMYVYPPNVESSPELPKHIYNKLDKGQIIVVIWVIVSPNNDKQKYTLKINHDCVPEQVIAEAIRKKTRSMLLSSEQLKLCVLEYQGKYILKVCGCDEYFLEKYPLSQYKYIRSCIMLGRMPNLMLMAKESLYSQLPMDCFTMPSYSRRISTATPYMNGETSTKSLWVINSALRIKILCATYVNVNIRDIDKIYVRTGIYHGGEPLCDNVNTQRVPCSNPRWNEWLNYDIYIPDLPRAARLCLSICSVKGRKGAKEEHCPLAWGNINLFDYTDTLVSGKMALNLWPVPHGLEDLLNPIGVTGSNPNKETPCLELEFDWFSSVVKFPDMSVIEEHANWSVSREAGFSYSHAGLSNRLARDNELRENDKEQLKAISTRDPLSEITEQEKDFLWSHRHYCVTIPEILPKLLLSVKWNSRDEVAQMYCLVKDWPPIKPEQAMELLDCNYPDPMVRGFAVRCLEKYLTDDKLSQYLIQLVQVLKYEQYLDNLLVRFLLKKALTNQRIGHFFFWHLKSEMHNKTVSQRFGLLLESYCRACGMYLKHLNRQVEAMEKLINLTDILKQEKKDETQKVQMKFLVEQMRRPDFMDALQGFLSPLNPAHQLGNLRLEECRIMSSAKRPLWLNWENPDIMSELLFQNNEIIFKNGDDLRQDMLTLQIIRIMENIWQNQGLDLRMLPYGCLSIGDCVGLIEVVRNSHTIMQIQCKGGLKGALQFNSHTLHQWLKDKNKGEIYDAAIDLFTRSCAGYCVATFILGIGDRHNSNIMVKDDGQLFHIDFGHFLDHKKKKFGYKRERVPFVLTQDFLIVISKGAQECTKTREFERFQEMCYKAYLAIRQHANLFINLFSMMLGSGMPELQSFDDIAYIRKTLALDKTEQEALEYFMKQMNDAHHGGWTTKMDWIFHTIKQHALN

Structure (SMILES) | target or system | test | system | conditions | quantity | result
COc1ccc2c(=O)n(C)c(-c3ccccc3)nc2c1 |  |  | male Sprague-Dawley rat, spleen | oral, 30 mg/kg, 30 min | concentration | 12.1 ng/mL
COc1ccc([C@@H](O)c2cc(-c3ncnc4cc(N5CCOCC5)ccc34)c(F)cc2Cl)nn1 |  |  | human, plasma | oral, 300 mg, single dose, patients | Tmax | 1.51 h
O=C(COc1ccc(Cl)cc1)NC12CC(c3nnc([C@H]4C[C@@H](OC(F)(F)F)C4)o3)(C1)C2 |  |  | human, plasma | oral, 15 mg, single dose, fasted, healthy volunteers | Tmax | 8.04 h
O=C1CC[C@H](N2Cc3cc(N4CCN(CC5CCN(c6ccc([C@@H]7c8ccc(O)cc8CC[C@@H]7c7ccccc7)cc6)CC5)CC4)ccc3C2=O)C(=O)N1 |  |  | female Sprague-Dawley rat, plasma | intravenous, 5 mg/kg, fed | Vd | 3.06 L/kg
O=C(c1ccc(F)cc1)C1CCN(CCn2c(=O)[nH]c3ccccc3c2=O)CC1 |  | metabolic stability | rat, liver microsomes | 1 h | compound remaining | 10.2%
Cc1noc(C)c1Cn1cc(N2C(=O)CN(Cc3cccc(O)c3)C2=O)cn1 |  |  | male Sprague-Dawley rat, plasma | intravenous, 1 mg/kg, 4.8 min | concentration | 619 ng/mL
Cn1nc2c(=O)n(C3CC3)ccc2c1[C@](O)(c1cnc(C(F)(F)F)c(Cl)c1)C(F)(F)F |  | nephelometry | aqueous buffer | 30 min, pH 6.5 | kinetic solubility | 20 to 40 µM (≈ 9.34 to 18.7 µg/mL)
CCCCC(=O)Nc1ccc(-c2ccc3ncn(CCC)c(=O)c3c2)cn1 | Phosphatidylinositol 4,5-bisphosphate 3-kinase catalytic subunit alpha isoform (PIK3CA, Homo sapiens, UniProt P42336) | binding, competition with immobilised ligand |  | 0.5 µM | remaining binding | 100%
CCn1cc(C2CC2)c2c([C@H](O)c3cnc(C(F)(F)F)c(Cl)c3)n(C)nc2c1=O |  | nephelometry | aqueous buffer | 30 min, pH 6.5 | kinetic solubility | 80 to 160 µM (≈ 34.1 to 68.3 µg/mL)
COc1cccc(-c2n[nH]c(SCc3ccccn3)n2)c1OC |  |  | female Sprague-Dawley rat, plasma | oral, 100 mg/kg, 15 min, single dose | concentration | 94800 ng/mL
Cn1nc2c(=O)n(C3CC3)cnc2c1[C@](O)(c1ccc(C(F)(F)F)c(Cl)c1)C(F)(F)F |  | nephelometry | aqueous buffer | 30 min, pH 6.5 | kinetic solubility | 20 to 40 µM (≈ 9.34 to 18.7 µg/mL)
Cc1c(C(=O)O)ccc2c3n(nc12)[C@@H]1[C@H](C3)N(CC2CC2)[C@@]2(C(=O)Nc3cc(Cl)ccc32)[C@H]1c1cccc(Cl)c1F |  |  | male rat, plasma | intravenous | Vd | 0.28 L/kg
CCn1cc(C2CC2)c2c(Cc3cnc(C(F)(F)F)c(OC)c3)n(C)nc2c1=O |  | nephelometry | aqueous buffer | 30 min, pH 6.5 | kinetic solubility | 60 to 120 µM (≈ 24.4 to 48.8 µg/mL)
CCOC(=O)[C@@]12C[C@@H]1[C@@H](n1ccc3c(NC)nc(C#Cc4ccc(Cl)s4)nc31)[C@H](O)[C@@H]2O |  |  | male Sprague-Dawley rat, plasma | oral, 3 mg/kg, 1 h | concentration | 65.9 ng/mL

Excerpt of the above:
Structure (SMILES) | target or system | test | system | conditions | quantity | result
Cc1c(C(=O)O)ccc2c3n(nc12)[C@@H]1[C@H](C3)N(CC2CC2)[C@@]2(C(=O)Nc3cc(Cl)ccc32)[C@H]1c1cccc(Cl)c1F |  |  | male rat, plasma | intravenous | Vd | 0.28 L/kg
CCn1cc(C2CC2)c2c(Cc3cnc(C(F)(F)F)c(OC)c3)n(C)nc2c1=O |  | nephelometry | aqueous buffer | 30 min, pH 6.5 | kinetic solubility | 60 to 120 µM (≈ 24.4 to 48.8 µg/mL)
